Measurements of several laboratories.
Numbered parts are unrelated; each lists some results of a single study. ± marks the error that the study gave.
UniProt P35968, sequence (whole entry, looked up): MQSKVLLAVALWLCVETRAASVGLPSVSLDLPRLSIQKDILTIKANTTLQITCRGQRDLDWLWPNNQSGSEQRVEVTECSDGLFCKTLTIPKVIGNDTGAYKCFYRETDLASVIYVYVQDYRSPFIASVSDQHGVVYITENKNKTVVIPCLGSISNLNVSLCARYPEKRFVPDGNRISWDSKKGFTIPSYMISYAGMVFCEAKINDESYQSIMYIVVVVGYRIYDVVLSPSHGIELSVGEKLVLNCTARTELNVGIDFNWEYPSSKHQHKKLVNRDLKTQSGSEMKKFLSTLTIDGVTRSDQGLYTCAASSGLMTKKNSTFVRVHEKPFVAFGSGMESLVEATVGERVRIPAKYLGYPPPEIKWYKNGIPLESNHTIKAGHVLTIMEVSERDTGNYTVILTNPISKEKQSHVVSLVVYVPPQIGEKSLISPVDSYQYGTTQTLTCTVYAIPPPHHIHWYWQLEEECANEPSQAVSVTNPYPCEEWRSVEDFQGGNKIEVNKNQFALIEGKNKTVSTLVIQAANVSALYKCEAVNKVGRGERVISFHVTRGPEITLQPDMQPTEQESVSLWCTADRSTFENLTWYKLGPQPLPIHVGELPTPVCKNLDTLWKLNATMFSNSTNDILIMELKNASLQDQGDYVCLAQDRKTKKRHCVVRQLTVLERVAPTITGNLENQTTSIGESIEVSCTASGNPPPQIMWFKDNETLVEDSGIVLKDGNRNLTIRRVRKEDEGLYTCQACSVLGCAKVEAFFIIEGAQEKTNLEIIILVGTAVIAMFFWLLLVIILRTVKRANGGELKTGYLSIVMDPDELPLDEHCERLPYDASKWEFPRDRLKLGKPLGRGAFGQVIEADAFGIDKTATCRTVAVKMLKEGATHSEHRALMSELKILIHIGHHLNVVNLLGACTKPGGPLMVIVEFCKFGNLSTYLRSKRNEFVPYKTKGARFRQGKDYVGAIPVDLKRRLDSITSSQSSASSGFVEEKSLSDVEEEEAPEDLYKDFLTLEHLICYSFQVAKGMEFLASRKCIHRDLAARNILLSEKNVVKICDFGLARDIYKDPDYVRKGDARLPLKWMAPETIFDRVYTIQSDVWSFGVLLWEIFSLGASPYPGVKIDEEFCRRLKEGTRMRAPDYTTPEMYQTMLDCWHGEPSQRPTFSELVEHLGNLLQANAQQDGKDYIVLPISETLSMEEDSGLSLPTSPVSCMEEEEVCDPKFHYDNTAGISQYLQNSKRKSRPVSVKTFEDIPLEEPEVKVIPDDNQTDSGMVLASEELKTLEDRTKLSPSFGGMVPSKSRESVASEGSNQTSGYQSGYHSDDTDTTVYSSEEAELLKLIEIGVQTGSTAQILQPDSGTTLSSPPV
UniProt Q16832, sequence (whole entry, looked up): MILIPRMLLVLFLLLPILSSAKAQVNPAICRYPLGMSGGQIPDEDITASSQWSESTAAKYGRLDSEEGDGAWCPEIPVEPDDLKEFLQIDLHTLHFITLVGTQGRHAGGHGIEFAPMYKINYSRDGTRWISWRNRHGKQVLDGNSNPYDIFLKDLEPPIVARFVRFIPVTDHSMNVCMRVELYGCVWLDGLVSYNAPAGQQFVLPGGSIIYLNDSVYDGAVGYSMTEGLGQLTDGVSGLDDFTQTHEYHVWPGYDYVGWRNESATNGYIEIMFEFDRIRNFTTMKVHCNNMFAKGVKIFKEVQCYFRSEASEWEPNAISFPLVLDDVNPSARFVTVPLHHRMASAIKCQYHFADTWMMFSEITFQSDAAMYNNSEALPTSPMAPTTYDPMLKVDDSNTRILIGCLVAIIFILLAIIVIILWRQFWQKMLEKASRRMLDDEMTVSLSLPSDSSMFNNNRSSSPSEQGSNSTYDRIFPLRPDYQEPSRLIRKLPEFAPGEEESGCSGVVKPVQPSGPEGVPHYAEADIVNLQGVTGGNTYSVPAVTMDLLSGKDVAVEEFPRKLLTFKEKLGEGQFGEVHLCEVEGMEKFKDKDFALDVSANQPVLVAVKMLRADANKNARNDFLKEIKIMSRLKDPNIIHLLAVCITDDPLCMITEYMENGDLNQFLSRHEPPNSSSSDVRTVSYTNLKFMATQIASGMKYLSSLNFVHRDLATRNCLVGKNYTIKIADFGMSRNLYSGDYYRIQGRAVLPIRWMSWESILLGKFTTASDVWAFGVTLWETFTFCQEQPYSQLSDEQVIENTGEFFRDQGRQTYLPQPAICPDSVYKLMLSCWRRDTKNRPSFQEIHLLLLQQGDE
UniProt P41240, sequence (whole entry, looked up): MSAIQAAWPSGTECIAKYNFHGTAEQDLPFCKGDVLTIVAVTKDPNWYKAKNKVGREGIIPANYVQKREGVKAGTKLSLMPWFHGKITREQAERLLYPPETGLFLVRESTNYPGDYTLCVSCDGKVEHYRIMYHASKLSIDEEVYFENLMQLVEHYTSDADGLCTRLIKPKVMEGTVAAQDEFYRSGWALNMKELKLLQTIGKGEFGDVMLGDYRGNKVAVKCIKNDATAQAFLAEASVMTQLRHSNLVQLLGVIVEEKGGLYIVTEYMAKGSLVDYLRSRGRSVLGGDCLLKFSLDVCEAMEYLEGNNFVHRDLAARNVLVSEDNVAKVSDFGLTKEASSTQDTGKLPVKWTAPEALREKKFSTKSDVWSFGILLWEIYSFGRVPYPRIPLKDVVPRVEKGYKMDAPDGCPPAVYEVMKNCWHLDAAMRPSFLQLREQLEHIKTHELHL
UniProt Q86UX6, sequence (whole entry, looked up): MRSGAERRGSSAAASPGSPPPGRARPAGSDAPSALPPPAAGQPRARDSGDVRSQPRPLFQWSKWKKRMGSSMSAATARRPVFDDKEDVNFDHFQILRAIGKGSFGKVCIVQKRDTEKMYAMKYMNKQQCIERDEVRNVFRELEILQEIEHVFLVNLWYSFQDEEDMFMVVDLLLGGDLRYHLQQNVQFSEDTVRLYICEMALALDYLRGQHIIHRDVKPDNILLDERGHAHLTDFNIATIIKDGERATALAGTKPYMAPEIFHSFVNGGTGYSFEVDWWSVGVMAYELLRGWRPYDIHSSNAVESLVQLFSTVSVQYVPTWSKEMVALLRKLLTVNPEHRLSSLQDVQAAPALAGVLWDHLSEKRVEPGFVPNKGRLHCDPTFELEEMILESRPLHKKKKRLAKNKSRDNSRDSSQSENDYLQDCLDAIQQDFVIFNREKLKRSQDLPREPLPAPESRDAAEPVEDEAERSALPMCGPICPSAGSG
UniProt Q13464, sequence (whole entry, looked up): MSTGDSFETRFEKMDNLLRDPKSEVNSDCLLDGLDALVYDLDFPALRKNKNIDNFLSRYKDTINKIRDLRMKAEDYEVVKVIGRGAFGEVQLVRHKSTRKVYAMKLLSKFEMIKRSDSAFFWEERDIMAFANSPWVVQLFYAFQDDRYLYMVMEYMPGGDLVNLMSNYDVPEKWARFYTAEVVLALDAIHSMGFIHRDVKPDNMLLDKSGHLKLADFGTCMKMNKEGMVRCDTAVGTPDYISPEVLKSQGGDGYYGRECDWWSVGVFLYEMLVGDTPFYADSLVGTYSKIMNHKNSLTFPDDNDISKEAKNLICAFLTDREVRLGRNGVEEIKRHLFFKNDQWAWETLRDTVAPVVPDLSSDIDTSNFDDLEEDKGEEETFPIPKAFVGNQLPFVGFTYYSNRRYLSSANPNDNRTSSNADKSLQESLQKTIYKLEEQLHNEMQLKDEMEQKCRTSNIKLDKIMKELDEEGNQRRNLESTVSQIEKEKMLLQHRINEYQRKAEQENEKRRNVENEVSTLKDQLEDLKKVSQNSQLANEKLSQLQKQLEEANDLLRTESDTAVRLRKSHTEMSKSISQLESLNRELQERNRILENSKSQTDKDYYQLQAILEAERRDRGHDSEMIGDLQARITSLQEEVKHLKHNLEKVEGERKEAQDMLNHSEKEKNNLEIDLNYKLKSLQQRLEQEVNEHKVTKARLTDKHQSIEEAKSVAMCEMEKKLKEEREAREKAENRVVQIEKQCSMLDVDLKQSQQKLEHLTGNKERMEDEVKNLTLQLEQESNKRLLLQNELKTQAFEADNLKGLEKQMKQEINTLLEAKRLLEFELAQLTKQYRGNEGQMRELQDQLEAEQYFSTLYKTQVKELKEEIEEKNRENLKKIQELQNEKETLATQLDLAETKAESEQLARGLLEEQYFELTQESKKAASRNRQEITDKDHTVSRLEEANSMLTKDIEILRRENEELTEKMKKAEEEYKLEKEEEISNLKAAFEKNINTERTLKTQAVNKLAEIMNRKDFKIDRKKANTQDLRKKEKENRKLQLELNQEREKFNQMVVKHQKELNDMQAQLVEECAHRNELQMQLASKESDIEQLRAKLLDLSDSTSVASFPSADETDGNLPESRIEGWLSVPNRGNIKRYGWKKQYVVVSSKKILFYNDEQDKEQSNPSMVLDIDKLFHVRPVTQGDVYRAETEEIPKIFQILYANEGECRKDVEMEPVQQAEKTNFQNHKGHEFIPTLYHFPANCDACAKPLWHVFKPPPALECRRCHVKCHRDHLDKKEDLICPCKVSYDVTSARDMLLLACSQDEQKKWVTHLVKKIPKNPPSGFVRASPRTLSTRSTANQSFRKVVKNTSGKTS

Block 1 — observed: kinase activity
SMILES: COc1cc(C(=O)N2CCC(N3CCN(C)CC3)CC2)ccc1Nc1ncc2c(n1)N(C)c1ccccc1C(=O)N2C
| target | conditions | remaining activity [%] |
| --- | --- | --- |
| IKKb | 10 µM | 106 ± 7 |
| MARK2 | 10 µM | 72 ± 9 |
| RSK1 | 1 µM | 97 ± 3 |
| CAMK1 | 10 µM | 43 ± 5 |
| MST4 | 1 µM | 90 ± 9 |
| MNK1 | 10 µM | 53 |
| PKBb | 10 µM | 79 ± 8 |

Block 2 — mode: agonist
Target: Beta-1 adrenergic receptor (ADRB1, Homo sapiens, UniProt P08588)
UniProt P08588, sequence (whole entry, looked up): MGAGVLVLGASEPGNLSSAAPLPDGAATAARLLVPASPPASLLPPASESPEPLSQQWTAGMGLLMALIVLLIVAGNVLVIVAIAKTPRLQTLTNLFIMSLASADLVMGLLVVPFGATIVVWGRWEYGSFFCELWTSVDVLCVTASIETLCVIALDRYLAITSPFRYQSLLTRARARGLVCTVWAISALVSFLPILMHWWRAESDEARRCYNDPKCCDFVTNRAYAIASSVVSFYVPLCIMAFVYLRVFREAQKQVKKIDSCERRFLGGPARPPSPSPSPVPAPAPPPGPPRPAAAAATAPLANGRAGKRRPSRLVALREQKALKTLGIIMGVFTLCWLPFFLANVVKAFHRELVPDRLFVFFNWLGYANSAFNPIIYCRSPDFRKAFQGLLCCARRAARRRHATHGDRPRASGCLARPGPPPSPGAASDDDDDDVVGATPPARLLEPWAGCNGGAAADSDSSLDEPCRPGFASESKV
| SMILES | EC50 [µM] |
| --- | --- |
| O=C(Nc1ccc([C@@H](O)[C@H]2COCC(=O)N2Cc2ncc[nH]2)cc1)C1CC1 | ≥ 100 |
| OC(COc1ccc(CN2CC(N3CCCCC3)C2)cc1)CN1CCCCC1 (stereo not drawn) | ≥ 100 |
| O=C(Nc1ccccc1OC(F)(F)F)c1sc2cc(F)ccc2c1Cl | ≥ 100 |
| CC(C)SCC[C@@H](N)[C@H](O)C(=O)NNC(=O)c1cccc(Cl)c1 | ≥ 100 |
| COc1ccccc1N1CCN([S+](=O)([O-])c2c(C)cc(C)cc2C)CC1 | ≥ 100 |

Block 3 — SMILES: CCc1[nH]c(-c2ccc(OC)cc2)nc1-c1ccncc1; observed: enzyme activity; mode: inhibitor; tested at: 0.5 µM; reference: control
| target | remaining activity [%] |
| --- | --- |
| PNCK (Homo sapiens, UniProt Q6P2M8) | 102 |
| MAPK14 (Homo sapiens, UniProt Q16539) | 113 |
| MAPK11 (Homo sapiens, UniProt Q15759) | 104 |
| MAP2K1 (Homo sapiens, UniProt Q02750) | 97.8 |
| RPS6KA4 (Homo sapiens, UniProt O75676) | 98.6 |
| TLK2 (Homo sapiens, UniProt Q86UE8) | 102 |
| DDR2 (Homo sapiens, UniProt Q16832) | 96.1 |
| MARK4 (Homo sapiens, UniProt Q96L34) | 96.4 |
| KDR (Homo sapiens, UniProt P35968) | 103 |
| CLK3 (Homo sapiens, UniProt P49761) | 95.6 |
| MINK1 (Homo sapiens, UniProt Q8N4C8) | 103 |
| ROCK1 (Homo sapiens, UniProt Q13464) | 105 |
| NEK3 (Homo sapiens, UniProt P51956) | 92.4 |
| MARK2 (Homo sapiens, UniProt Q7KZI7) | 99.4 |

Block 4 — observed: cell-free assay; technique: competition with immobilised ligand; tested at: 1 µM
SMILES: CCC(=O)N[C@H]1CC[C@@H](C(=O)N(C)c2ccc(-c3nc4ccccc4o3)cc2)C1
| target | remaining binding [%] |
| --- | --- |
| WEE2 (Homo sapiens, UniProt P0C1S8) | 96 |
| KIT (Homo sapiens, UniProt P10721, L576P) | 61 |
| CSK (Homo sapiens, UniProt P41240) | 100 |
| STK32C (Homo sapiens, UniProt Q86UX6) | 94 |
| STK33 (Homo sapiens, UniProt Q9BYT3) | 100 |
| Tyrosine-protein kinase ABL1, phosphorylated (ABL1, Homo sapiens, UniProt P00519, F317L) | 72 |
| KDR (Homo sapiens, UniProt P35968) | 75 |

For quick reference, copied from above (block 1):
| target | conditions | remaining activity [%] |
| --- | --- | --- |
| CAMK1 | 10 µM | 43 ± 5 |
| MST4 | 1 µM | 90 ± 9 |
| MARK2 | 10 µM | 72 ± 9 |
